{"data": "Published values pooled from the literature", "note": "Each numbered part is a random draw from the data of one study; scales do not carry over between parts. “And” joins repeats or separate records; there may be more than shown.", "UniProt Q16584, sequence (whole entry, looked up)": "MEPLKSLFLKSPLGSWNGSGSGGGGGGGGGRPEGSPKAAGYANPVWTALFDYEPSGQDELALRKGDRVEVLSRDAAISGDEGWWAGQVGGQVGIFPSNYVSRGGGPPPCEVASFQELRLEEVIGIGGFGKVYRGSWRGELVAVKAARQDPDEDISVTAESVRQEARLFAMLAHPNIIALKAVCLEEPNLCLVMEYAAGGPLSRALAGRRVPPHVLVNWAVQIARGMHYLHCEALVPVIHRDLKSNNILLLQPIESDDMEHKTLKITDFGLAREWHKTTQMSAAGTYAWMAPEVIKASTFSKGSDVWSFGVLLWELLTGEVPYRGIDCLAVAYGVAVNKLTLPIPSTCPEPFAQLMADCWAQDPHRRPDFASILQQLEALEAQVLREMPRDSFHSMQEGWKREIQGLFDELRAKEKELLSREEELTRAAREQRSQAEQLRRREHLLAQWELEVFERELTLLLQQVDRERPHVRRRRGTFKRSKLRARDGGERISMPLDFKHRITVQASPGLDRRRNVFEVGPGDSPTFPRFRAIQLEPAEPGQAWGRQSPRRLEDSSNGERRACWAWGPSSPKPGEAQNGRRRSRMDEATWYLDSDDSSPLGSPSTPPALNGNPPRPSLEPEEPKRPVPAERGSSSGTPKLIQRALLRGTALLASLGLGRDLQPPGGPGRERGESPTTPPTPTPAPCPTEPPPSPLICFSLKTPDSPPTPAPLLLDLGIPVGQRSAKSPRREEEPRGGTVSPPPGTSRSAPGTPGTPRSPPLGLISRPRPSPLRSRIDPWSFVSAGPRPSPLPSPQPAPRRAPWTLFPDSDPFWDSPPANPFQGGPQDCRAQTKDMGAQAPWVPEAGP", "UniProt Q9HBY8, sequence (whole entry, looked up)": "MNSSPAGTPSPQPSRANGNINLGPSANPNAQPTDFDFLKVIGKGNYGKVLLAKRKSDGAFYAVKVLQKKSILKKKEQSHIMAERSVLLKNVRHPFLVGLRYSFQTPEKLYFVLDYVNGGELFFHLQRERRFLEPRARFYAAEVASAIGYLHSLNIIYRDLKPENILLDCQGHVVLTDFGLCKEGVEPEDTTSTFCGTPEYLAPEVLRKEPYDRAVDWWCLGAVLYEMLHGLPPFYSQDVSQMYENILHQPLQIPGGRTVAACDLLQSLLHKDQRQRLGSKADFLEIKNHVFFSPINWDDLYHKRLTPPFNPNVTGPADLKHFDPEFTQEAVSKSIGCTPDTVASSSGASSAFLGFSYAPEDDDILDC"}
{"data": "Set 1", "target": "Serine/threonine-protein kinase TAO2 (TAOK2, Homo sapiens, UniProt Q9UL54)", "observed": "enzyme activity", "action": "inhibitor", "tested at": "0.5 µM", "relative to": "control", "UniProt Q9UL54, sequence (whole entry, looked up)": "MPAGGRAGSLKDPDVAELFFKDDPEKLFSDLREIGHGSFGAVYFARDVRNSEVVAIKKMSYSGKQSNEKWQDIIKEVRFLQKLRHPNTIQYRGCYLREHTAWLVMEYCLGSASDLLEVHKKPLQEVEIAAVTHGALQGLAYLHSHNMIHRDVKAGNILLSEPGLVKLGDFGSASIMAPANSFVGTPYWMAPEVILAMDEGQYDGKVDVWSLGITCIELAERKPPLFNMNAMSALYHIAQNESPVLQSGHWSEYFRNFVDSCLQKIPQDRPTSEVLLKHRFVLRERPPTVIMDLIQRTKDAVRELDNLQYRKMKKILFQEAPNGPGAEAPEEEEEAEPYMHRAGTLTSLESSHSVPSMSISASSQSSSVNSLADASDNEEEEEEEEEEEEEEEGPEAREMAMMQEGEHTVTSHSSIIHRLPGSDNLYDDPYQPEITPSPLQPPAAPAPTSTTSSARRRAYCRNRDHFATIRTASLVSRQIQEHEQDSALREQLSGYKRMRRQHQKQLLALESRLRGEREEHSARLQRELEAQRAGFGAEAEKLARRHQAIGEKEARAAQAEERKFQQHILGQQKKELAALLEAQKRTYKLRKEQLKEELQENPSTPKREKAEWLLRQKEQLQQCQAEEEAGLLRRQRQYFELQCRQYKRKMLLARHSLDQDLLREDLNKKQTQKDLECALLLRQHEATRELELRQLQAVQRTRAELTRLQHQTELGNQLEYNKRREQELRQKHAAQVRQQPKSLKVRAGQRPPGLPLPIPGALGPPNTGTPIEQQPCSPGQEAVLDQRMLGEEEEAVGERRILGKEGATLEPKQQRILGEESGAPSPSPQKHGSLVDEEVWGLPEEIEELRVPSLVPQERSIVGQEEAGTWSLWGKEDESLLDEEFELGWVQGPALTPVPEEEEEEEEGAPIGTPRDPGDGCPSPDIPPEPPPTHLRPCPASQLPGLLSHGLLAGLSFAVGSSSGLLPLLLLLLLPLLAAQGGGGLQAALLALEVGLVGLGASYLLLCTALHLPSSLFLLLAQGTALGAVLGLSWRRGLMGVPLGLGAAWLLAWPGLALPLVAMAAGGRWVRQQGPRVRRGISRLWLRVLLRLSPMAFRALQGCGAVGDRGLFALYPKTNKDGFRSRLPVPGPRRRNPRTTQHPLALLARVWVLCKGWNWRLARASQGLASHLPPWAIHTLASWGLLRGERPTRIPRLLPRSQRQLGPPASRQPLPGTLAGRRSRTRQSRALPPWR"}
{"Structure (SMILES)": "COc1ccc(CNC(=O)Nc2ncc([N+](=O)[O-])s2)cc1", "remaining activity [%]": 98.5}
{"Structure (SMILES)": "CC(C)[C@H](CO)Nc1nc(Nc2cc(N)cc(Cl)c2)c2ncn(C(C)C)c2n1", "remaining activity [%]": 82.2}
{"Structure (SMILES)": "CNC(=O)c1cc(Oc2ccc(NC(=O)Nc3ccc(Cl)c(C(F)(F)F)c3)cc2)ccn1", "remaining activity [%]": 36.9}
{"Structure (SMILES)": "O=S(=O)(c1cccc2cnccc12)N1CCCNCC1", "remaining activity [%]": 87.3}
{"Structure (SMILES)": "COc1ccc(C(=O)Nc2sc3c(c2C(N)=O)CCCC3)cc1OC", "remaining activity [%]": 97}
{"Structure (SMILES)": "O=C1NC(=O)c2cc(Nc3ccc(F)cc3)c(Nc3ccc(F)cc3)cc21", "remaining activity [%]": 94.7}
{"Structure (SMILES)": "OCC(O)CCON=C1C(c2c(O)[nH]c3ccccc23)=Nc2ccccc21 (stereo not shown)", "remaining activity [%]": 83.4}
{"Structure (SMILES)": "O=C(CCCc1ccc(-c2ccccc2F)cc1)Nc1ccc(O)cc1", "remaining activity [%]": 98.4}
{"Structure (SMILES)": "Nc1[nH]nc2nc3ccccc3nc12", "remaining activity [%]": 103}
{"Structure (SMILES)": "COc1ccc(OC)c2c(=S)c3ccccc3[nH]c12", "remaining activity [%]": 100}
{"Structure (SMILES)": "N#CCCc1ccc2c(c1)-c1[nH]c3ccc([N+](=O)[O-])cc3c1CC(=O)N2", "remaining activity [%]": 86.4}
{"Structure (SMILES)": "COc1cc2ncnc(Nc3ccc(F)c(Cl)c3)c2cc1OCCCN1CCOCC1", "remaining activity [%]": 106}
{"Structure (SMILES)": "Cc1cccc(-c2[nH]c(C(C)(C)C)nc2-c2ccc3c(c2)OCO3)n1", "remaining activity [%]": 87.6}
{"Structure (SMILES)": "CN(C)c1ccc(C=C2C(=O)Nc3ccccc32)cc1", "remaining activity [%]": 102}
{"Structure (SMILES)": "O=C1NC(=O)C(c2cn(CCCn3ccnc3)c3ccccc23)=C1Nc1ccccc1", "remaining activity [%]": 92.3}
{"Structure (SMILES)": "Cn1sc(=O)n(Cc2ccccc2)c1=O", "remaining activity [%]": 91}
{"Structure (SMILES)": "O=c1c2ccccc2[nH]c(=S)n1CCN1CCC(=C(c2ccc(F)cc2)c2ccc(F)cc2)CC1", "remaining activity [%]": 109}
{"data": "Set 2", "organism": "Sarcocystis neurona", "observed": "parasite activity", "tested at": "10 µM", "time": "96 h"}
{"Structure (SMILES)": "CNC(=C[N+](=O)[O-])NCCSCc1csc(CN(C)C)n1", "activity class": "inactive"}
{"Structure (SMILES)": "O=c1cnn([C@@H]2O[C@H](CO)[C@@H](O)[C@H]2O)c(=O)[nH]1", "activity class": "inactive"}
{"Structure (SMILES)": "O=c1n(CCCN2CCN(c3cccc(Cl)c3)CC2)nc2ccccn12", "activity class": "inactive"}
{"Structure (SMILES)": "O=[N+]([O-])c1cccc2cn[nH]c12", "activity class": "inactive"}
{"Structure (SMILES)": "O=C1c2c(O)cc(O)cc2OC(c2ccc(O)c(O)c2)C1O (stereo not shown)", "activity class": "inactive"}
{"Structure (SMILES)": "COc1ccc2c3c1O[C@H]1C[C@@H](O)C=C[C@@]31CCN(C)C2", "activity class": "inactive"}
{"data": "Set 3", "SMILES": "C[C@@H]1CN(c2cc(-c3n[nH]c4ccc(OC5(C)CC5)cc34)ncn2)C[C@H](C)O1", "observed": "cell-free assay", "method": "competition with immobilised ligand", "tested at": "0.1 µM"}
{"target": "Dual specificity protein kinase CLK2 (CLK2, Homo sapiens, UniProt P49760)", "remaining binding [%]": 85}
{"target": "Serine/threonine-protein kinase Sgk2 (SGK2, Homo sapiens, UniProt Q9HBY8)", "remaining binding [%]": 84}
{"target": "cAMP-dependent protein kinase catalytic subunit alpha (PRKACA, Homo sapiens, UniProt P17612)", "remaining binding [%]": 85}
{"target": "Mitogen-activated protein kinase kinase kinase 11 (MAP3K11, Homo sapiens, UniProt Q16584)", "remaining binding [%]": 100}
{"target": "Serine/threonine-protein kinase ULK2 (ULK2, Homo sapiens, UniProt Q8IYT8)", "remaining binding [%]": 69}
{"target": "Calcium/calmodulin-dependent protein kinase type II subunit delta (CAMK2D, Homo sapiens, UniProt Q13557)", "remaining binding [%]": 100}
{"target": "RAC-alpha serine/threonine-protein kinase (AKT1, Homo sapiens, UniProt P31749)", "remaining binding [%]": 87}
{"target": "Receptor-type tyrosine-protein kinase FLT3 (FLT3, Homo sapiens, UniProt P36888, D835V)", "remaining binding [%]": 73}
{"data": "Set 4", "target": "DNA polymerase theta, ATPase domain (POLQ, Homo sapiens, UniProt O75417)", "observed": "enzyme activity", "action": "inhibitor", "tested at": "77 µM", "relative to": "untreated", "UniProt O75417, sequence (whole entry, unmodified, looked up)": "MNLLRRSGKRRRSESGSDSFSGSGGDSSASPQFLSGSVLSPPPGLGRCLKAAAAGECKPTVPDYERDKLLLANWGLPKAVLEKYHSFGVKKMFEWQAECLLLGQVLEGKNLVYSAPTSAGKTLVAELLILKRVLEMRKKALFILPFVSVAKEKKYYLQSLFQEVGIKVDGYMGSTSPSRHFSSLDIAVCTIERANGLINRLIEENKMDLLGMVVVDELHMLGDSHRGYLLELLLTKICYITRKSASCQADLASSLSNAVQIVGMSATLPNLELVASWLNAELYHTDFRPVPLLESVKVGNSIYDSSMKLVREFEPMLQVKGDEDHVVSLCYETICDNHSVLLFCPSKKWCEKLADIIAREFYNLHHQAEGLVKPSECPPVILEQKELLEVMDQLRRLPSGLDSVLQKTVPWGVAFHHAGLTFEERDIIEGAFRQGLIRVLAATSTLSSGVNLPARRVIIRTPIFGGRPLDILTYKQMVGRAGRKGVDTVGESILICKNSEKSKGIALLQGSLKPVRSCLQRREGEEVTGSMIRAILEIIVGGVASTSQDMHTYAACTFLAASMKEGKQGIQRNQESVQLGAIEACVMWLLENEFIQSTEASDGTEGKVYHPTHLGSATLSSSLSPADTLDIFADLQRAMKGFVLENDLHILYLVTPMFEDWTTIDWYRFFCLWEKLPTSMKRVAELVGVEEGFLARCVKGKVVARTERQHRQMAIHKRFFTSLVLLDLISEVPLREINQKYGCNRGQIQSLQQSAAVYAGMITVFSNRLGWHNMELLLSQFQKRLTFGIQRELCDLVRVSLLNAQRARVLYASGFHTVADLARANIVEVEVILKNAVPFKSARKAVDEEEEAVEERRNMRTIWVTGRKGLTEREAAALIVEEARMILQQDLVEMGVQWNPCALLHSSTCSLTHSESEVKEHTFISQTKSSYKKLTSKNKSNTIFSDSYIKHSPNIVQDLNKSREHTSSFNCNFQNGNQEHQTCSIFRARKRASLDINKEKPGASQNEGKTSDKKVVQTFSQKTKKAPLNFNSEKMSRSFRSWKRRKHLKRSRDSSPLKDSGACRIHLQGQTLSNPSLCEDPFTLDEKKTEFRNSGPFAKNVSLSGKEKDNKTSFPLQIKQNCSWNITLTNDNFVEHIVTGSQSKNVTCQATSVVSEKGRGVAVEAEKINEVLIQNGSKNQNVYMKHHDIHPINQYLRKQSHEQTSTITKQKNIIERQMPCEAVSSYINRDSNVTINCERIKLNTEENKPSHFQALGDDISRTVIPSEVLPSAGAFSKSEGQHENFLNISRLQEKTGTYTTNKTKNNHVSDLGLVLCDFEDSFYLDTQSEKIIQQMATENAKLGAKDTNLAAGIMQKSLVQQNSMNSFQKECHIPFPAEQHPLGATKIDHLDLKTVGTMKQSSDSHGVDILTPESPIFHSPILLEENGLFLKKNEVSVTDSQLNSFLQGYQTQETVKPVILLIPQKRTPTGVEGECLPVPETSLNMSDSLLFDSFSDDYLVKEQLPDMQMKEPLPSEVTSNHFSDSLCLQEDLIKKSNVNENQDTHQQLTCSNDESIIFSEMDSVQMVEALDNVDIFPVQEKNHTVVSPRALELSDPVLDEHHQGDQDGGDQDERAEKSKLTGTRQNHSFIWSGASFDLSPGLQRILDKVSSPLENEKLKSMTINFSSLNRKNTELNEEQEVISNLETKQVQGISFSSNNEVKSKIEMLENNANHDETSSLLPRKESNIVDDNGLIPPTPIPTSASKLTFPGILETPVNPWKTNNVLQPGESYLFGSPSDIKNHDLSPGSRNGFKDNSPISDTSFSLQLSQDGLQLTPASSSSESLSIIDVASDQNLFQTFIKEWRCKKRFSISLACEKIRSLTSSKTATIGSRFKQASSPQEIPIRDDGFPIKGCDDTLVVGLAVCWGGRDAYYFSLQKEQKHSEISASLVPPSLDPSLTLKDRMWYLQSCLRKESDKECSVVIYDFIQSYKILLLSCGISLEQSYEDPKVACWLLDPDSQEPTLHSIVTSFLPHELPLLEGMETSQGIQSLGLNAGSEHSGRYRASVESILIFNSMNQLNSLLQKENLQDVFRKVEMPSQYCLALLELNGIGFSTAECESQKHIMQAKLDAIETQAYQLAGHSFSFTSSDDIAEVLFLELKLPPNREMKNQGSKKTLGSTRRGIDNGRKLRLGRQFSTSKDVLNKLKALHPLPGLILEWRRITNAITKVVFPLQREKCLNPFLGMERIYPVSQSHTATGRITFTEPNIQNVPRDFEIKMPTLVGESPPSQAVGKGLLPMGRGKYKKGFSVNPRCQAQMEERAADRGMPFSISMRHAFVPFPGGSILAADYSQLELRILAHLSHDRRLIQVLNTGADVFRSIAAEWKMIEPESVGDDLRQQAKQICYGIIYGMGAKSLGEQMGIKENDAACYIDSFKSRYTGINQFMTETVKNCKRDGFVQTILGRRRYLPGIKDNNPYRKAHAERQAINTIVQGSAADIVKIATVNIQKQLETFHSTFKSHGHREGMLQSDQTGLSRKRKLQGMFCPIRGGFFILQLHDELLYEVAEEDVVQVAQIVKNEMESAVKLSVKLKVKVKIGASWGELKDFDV"}
{"SMILES": "CC(C(=O)O)c1ccc(-c2ccccc2)c(F)c1 (stereo not shown)", "remaining activity": "93% and 96.5%"}
{"SMILES": "CCNC(=O)c1noc(-c2cc(Cl)c(O)cc2O)c1-c1ccc(OC)cc1", "remaining activity": "90.3%"}
{"SMILES": "CCN1C(=O)NC(c2ccccc2)C1=O (stereo not shown)", "remaining activity": "104%"}
{"SMILES": "CC(C)(C)NC(=O)[C@H]1CC[C@H]2[C@@H]3CC[C@H]4NC(=O)C=C[C@]4(C)[C@H]3CC[C@]12C", "remaining activity": "96.6% and 102%"}
{"SMILES": "NC(=O)CNCCC(c1ccccc1)c1ccccc1", "remaining activity": "106%"}
{"SMILES": "OCc1ccccc1O[C@@H]1O[C@H](CO)[C@@H](O)[C@H](O)[C@H]1O", "remaining activity": "100%"}
